Measured values of several laboratories.
Each numbered part is a random draw from the data of one study; scales do not carry over between parts.

Block 1 — technique: RNA Bind-n-Seq; molecule type: RNA; medium: in vitro; tested at: not given; reference: input RNA pool; direction: higher = stronger binding; quantity: bound/input enrichment
Target: RING finger protein unkempt homolog, zinc fingers 1-6, GST-SBP tag (UNK, Homo sapiens, UniProt Q9C0B0, residues 30-357)
Setting: RNA with constant flanks, human and mouse sites, ends assumed
All sequences stand within: GGGAGUUCUACAGUCCGACGAUC … CAACAGAGGAUUGAGCAUCA
Construct (chain): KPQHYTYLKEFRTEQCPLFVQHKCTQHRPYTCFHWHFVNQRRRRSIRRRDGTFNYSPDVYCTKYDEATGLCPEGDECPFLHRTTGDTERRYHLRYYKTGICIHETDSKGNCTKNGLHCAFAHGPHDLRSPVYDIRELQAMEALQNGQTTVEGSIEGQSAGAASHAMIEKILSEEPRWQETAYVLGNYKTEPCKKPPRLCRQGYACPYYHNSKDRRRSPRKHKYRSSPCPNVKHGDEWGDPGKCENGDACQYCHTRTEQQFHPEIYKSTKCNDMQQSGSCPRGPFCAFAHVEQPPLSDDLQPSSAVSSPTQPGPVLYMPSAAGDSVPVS
ACCCCAGAGCGAAUGGCGGAGGCUGGCUUCAUCCACUGCCCUACCGAGAACGAGCCUGAUUUGGCCCAGUGUUUUUUCUGCUUUAAGGAAUUGGAAGGCUGGGAACCCGAUGACAACCCG: 0.0526 ratio
UAACUCUAAAAGGGAGGUGCUUGGGAUUAAGGUGACAGUCCACUUGAUCCUUUUCUUUGUUUUAGUGUGAAUUUCAGCAGCUCCAUCUGUCUUCAUGAUUGUACUUGAGCAGUAUUAGCU: 0.243 ratio
CAGCCCAUCUCUAUGGCCUCCCUGUCUACAAACACAGAGCAAGAGCGGGUAUCUCGAGGAACCAGUACAGUCCUGCCAUCCGCCUCCCUCCAUGCACCACCAGAACCCAUUGAGGAAGCU: 0.31 ratio
CUUGCAGAGGCUGAGAGUCCCCCCCCCACCUUUUUUUUCAUUUAGAUGUAACAAACCUAGUAGUUUAUGUUCAUCAAUUGUCUGUAUAUCUCUAUAUUUUAUCCAUGUACUCUUUUGAUG: 56.5 ratio
UGUCUGCCUCAUUCUAAAAUUUACACAGUAGACCAUUUGUCAUCCAUGCUGUCCCACAGAUAGUUUUUUUGUUUACGAUUUAUGACAGGUUUAUGUUACUUCUAUUUGAAUUUCUAUAUU: 14.4 ratio
GAUCUGCAGGCAUAUCUCACAGAUUUCCUCUGCCAGUUUGCUCAGCAGCCCUGCUACAUAAUGUUUUCAGGCCACCUUAAUGACAAUGAGAGGCGAGUUCUACAGACCAUCGGCAUCUAA: 0.12 ratio
CAACAGUUUGCACAAGCCCAGCUUCAUCCUUCUUCAUCAGCAUCCUUUACUCAGGCUUCUAAUGUUUCUAAUUACUCAGGUCAGACACUGCAGCCUAUCGGGGUGACUCACGUGCCUGUU: 0.266 ratio
AGUGAAAAUCUACCAGGCUCCUCUUGUGAGGGGCAGUUCCAGUGUGUCCAUGUAGGGUUCUAGCUACAUCGUUCUAGAAGAUAUGAGUUAAUCUCUAAUAAAAGGAAAAUUAAGACUGGG: 0.654 ratio
AGGAGCCAGGAGAGGCGGGCGGGUCCCUAACGCUCGCAUUUGGGUAAAAGUCGCACGGAGUAGCAGCGUCUGUUCUGCACCAACUCAGAGUCUUGUUGGAGCUUUAUCCCUUUGUCCUAG: 0.14 ratio
UAUUUUCUAUUUAGUCUGUAUAUUUUGUUCUUCAUAGUCUGUUUUUUCUAGCAUGCUUGAUUUAGGAGAGAAUAAAGGGCUAUAUAAUAAUAAAUCCAGAUUUCCGGAUAAGAAUAUUGC: 4.42 ratio
UACAGAAGGAGCACCUCUCAAACCGUGCUUCAGGCUCUGAGAAAAGGAGCACAGGGGAAAUUAGUCUUGCUUUGGAUCCAAGCAAAUGCUGUCGGAGCAAUGAACUGGGACUUUGUGUGC: 0.157 ratio

Block 2 — technique: RNA Bind-n-Seq; molecule type: RNA; medium: in vitro; tested at: 365 nM; reference: no-protein control; direction: higher = stronger binding; quantity: RBNS enrichment (R)
Target: RNA binding protein fox-1 homolog 2, RRM domain, GST-SBP tag (RBFOX2, Homo sapiens, UniProt O43251-10, residues 100-194)
Setting: natural RNA segment, single round, ends assumed
All sequences stand within: GGGAGUUCUACAGUCCGACGAUC … UGGAAUUCUCGGGUGCCAA
Residues (chain): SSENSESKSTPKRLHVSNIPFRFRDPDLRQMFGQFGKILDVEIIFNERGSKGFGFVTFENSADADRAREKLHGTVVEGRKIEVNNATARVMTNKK
GAGAUCAGUGGAAUUUAGAAGCAUCUUACAGGUAUCAAGGAAUUGAGCUUCUAGAGGGAUGGUUUGGCUUACUAAUUUAUCUUCCCUGAAAUAUGUUUGAGUAAAAAAGA: 0.874
UCUCAUCUCACUUAGGAUUGUACCCCAAAGUCCUACAUGAUUGGCUUUAAAUGUCCGGGAAAACUAAUUUCAGUAGCGUAGUUUGAUAGGUUAAAUGAGAUAGCAUUUUU: 4.7
AUUACAGUGCUUUGGCUGGCUGAAGGUGGGAUUUGGGGACAGAAGUUACAUCAGAAUGUCAGAUGGAAGAAAAACAAGCUGGCCCUGGGCAAAAUGCUCAACUGUCAGCC: 2.79
AGUGAAACUGCGAUACAACCCAGCUGGUAUUUUUGGCUAUUCAUGAGCUACUCAUGACUGAAGGGAAACUGCAGCUGGGAAGAGGAGCCUGUUUUUGUGAGAGACUUUUG: 0.222
CAAGCUUCAUAUUAACCCUACCUGUCAACGUAACGAUUUCAUGAACGUUAUUAUAUUGUCGAAUUCCUACUGACAACAUUAUAACUGUAUGGGAGCUUAACUUUAUAAGG: 0.333
CACACUUUGGGCAGAAAUAAGUCACGAUCAUGAAGGAUGGACUGCCUGUCUCACCUGUCCCACAGAACCUAACCUAAGCUAGCUAGUGUUGUGGAGAUGAGAUUUGCAGU: 0.587
UAAGACAGACACCUUGGAACUUUCAUUCGGAAAUUAGUCCCCGAAGUUUGAGAUAAGUCUUUUUUUGAAUUUUUUUUUCUCUGAUCUGCUUAAAAUGCAGAUUGGCUUUA: 0.403
AGCUGCCCCUGUCCCCACCUCUGGAGAAUCCACCCCCACCAGAUUCCUCCGCGGGAGGUGGCCCUCAGCUGGGACAGUGGGGACCCAGGCUUCUCCUCAGAGCCAGGCCC: 0.283
GUUUUGUUUUUUCGAUGUGAAUAGAGAACUCGGACAUUUUGCUGCUAAACAAUCUCCCCUCCCUCACCCUACUUGCACUGCUGUGGGUUUUUUAAAGAGAAACAGAACCA: 1.06
UUGGGGUACCUGCCUCUCUCUCUCCUGUGGUGUCCCUUCCCUCUCCCAUGUGCUCGGUGUUCAGUGGUGUAUAUUUCUUCUCCCAGACAUGGGGCACACGCCCCAAGGGA: 0.325
AUGUGUGGGGUUUCUAUUAGAAGAUAAUUUUGUUCUCAUUUUACCUUUUCUUUUAUGAUCCUUCUCUGCUAGAACAGGUUAAUUCUCCAAAUUUGUUUUGUUUUGUUUUG: 1.96
UAAGAGCUUUAAAACUAUUUUUUUACAUGCCUUAUAUACAUUCCACUAAUGACAUUCUUAUAAUAAUAUUAAACACAUGAUCUUGGUACUAACAUACUCACUGUGAACCC: 0.462

Block 3 — technique: RNA Bind-n-Seq; molecule type: RNA; medium: in vitro; tested at: 1 µM; setting: whole 134-nt RNA, ends assumed; added: 150 mM KCl; reference: input library; direction: higher = stronger binding; quantity: log2 enrichment
Target: Ras GTPase-activating protein-binding protein 1, RRM domain (G3BP1, Homo sapiens, UniProt Q13283)
Chain of UniProt Q13283 (whole entry, looked up): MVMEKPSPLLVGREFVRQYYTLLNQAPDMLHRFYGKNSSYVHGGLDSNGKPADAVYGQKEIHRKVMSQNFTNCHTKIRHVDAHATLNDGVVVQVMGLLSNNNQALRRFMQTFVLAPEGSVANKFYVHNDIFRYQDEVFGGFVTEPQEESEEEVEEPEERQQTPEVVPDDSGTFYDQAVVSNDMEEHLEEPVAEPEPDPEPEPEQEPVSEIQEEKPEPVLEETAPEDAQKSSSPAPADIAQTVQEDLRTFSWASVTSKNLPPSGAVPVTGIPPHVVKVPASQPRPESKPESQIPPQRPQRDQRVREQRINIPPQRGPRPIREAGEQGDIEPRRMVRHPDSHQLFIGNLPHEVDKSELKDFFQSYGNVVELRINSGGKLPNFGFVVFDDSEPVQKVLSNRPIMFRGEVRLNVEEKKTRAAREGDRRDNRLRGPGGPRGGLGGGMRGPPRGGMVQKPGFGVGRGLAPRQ
All sequences stand within: GGGAGUUCUACAGUCCGACGAUC … UGGAAUUCUCGGGUGUCAAGG
CAAGUCCUGUGCUACACAUCGUAUGUACCGAAUCGGUGGUUUUUUUGGUUUUUGGAAAGUAUUAUGUUACGCCGUUCGGAUCUGCACUUC: -0.245
GCAGGAAGUAAAAACAAAUGGAAAUGCAUCGGAUAGUGGCAGGGGUGGGGGUUGCUAAGGAAAGGGUGGGAUGGGAGUGGGUAAAGAGUU: 1.26
CACAGACAACACGCACCCACACAGACACAGAGGGAAGGGGUUGGGAUGGGGACAGUGUGCACAGCAGGGCGGGGUAGGACCCCAGCCCCU: -0.00267
UCCUGUGCUACACAUCGUAUGUACCGAAUCGGCCCCCCCGGCCCCCCCGGCCCCCCCGGAAAGUAUUAUGUUACGCCGUUCGGAUCUGCA: -0.749
CAAGUCCUGUGCUACACAUCGUAUGUACCGAAUCGGGAGGGUGGGUUUUUUUGGGAAAGUAUUAUGUUACGCCGUUCGGAUCUGCACUUC: 0.668
AAGUCCUGUGCUACACAUCGUAUGUACCGAAUCGGGUUUUUGGGUUUUUGGGAGGGAAAGUAUUAUGUUACGCCGUUCGGAUCUGCACUU: 0.346
CUCAAGUCCUGUGCUACACAUCGUAUGUACCGAAUCGGAAAGGUUUUUGGAGGAAAGUAUUAUGUUACGCCGUUCGGAUCUGCACUUCCA: -0.173
CACAGACAACACGCACCCACACAGACACAGAGGGAAGGGGUUGGGAUGGGGACAGGGUGCACAGCAGGGCCGGGUAGGACCCCAGCCCCU: -0.355
CACAGACAACACGCACCCACACAGACACAGAGGGAAGGGGUUGGGAUGGGGACAGGGUGCACAGCAGGGCGGGGUAGGACCCCAGCUCCU: -0.404
UCCUGUGCUACACAUCGUAUGUACCGAAUCGGGGAAAAAAAGGGGUGGGGAAAAAGGGGAAAGUAUUAUGUUACGCCGUUCGGAUCUGCA: 0.618

Block 4 — technique: RNAcompete; molecule type: RNA; medium: in vitro; tested at: 20 nM; setting: 7-mer, probes averaged, single round; reference: mean of 7-mers; direction: higher = stronger binding; quantity: 7-mer Z-score
Target: PABPC1L2, full length, GST fusion (mouse, UniProt A0ABA7IW68)
Target sequence (chain): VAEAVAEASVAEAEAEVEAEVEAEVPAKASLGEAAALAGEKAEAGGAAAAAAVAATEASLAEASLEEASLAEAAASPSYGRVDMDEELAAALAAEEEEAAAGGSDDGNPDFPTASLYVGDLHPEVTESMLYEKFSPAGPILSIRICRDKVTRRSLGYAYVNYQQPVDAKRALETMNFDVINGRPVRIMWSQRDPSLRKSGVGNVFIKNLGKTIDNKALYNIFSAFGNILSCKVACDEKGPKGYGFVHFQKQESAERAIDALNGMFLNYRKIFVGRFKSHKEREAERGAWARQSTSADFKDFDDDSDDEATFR
UCGUUAC: -0.358
AACUCCG: -0.0826
AAUCAGG: 0.309
CGGAUCU: -0.0699
UAUGCCA: -0.0899
ACAACCU: 0.0134
GGCUACG: -0.124
CAGGCGU: 0.0551
CAACGUG: -0.0409
UUAAGCG: 0.0225
UCGCUUC: -0.532
AUCGCAU: -0.2
AACUUAU: -0.0645
GCACCGC: -0.133
CCGGGGU: -0.0428
CUCUUCG: -0.411
CGGUAAA: 0.992
GUUUCGG: -0.441
UUCGCGA: -0.269
UUGGGUG: -0.142
GGGGCGC: 0.213
AACACGC: 0.244
UUACACU: -0.199
CGGCCGA: -0.244
GUGACCC: -0.133
